Published values of several laboratories.
Each line is one published result; not all experiments were run side by side. ± marks the error that the study gave.

SMILES	assay	system	conditions	how to read	endpoint	value
CCc1c2c(nc3ccc(O)cc13)-c1cc3c(c(=O)n1C2)COC(=O)[C@@]3(CC)OC(=O)[C@H](N)C(C)C		mice, orthotopic CT26 colon cancer	i.v., dose not given	baseline: irinotecan	survival extension	≥ 2 weeks
CC[C@H](C)[C@H](NC(=O)[C@H](Cc1c[nH]c2ccccc12)NC(=O)[C@H](CCCNC(=N)N)NC(=O)[C@H](CCCCN)NC(=O)[C@H](CC(C)C)NC(=O)[C@H](CC(=O)O)NC(=O)[C@H](Cc1ccccc1)NC(=O)[C@H](C)NC(=O)[C@H](Cc1ccc(O)cc1)NC(=O)[C@H](CC(N)=O)NC(=O)[C@H](Cc1ccc(O)cc1)NC(=O)[C@H](CCCNC(=N)N)NC(=O)[C@H](Cc1ccc(O)cc1)NC(=O)[C@H](Cc1ccc(O)cc1)NC(=O)[C@@H](NC(=O)[C@H](CC(C)C)NC(=O)[C@H](C)NC(=O)[C@H](CC(N)=O)NC(=O)[C@H](Cc1ccc(O)cc1)NC(C)=O)[C@@H](C)CC)C(=O)N[C@@H](Cc1ccc(O)cc1)C(=O)N[C@@H](CC(C)C)C(N)=O	item: HA-15 tetramer	antigen-experienced tetramer+ CD4 T cells, healthy adults, HLA-DRB1*0101	dose not given		α4β7+ CCR9− cells	50%
O=C(O)COc1c2c(c(OCC(=O)O)c3c1C1CC3c3cc4c(cc31)C1CC4c3ccccc31)C1CC2c2cc3c(cc21)C1CC3c2ccccc21	confocal microscopy	DOPC/SM/cholesterol giant vesicles	150 µM		time to domain pinch-off	15 to 30 min
CCCCCCCCCCCCCCCC(=O)N[C@@H](CCC(=O)NCCOCCOCCC(=O)NCCOCCOCCC(=O)NCCCC[C@H](NC(=O)[C@H](CC(=O)O)NC(=O)[C@H](CC(C)C)NC(=O)[C@H](Cc1ccc(O)cc1)NC(=O)[C@H](CCCCN)NC(=O)[C@H](CO)NC(=O)[C@H](Cc1ccc(O)cc1)NC(=O)[C@H](CC(=O)O)NC(=O)[C@H](CO)NC(=O)[C@@H](NC(=O)[C@H](Cc1ccccc1)NC(=O)[C@@H](NC(=O)CNC(=O)[C@H](CCC(N)=O)NC(=O)[C@@H](CO)NC(=O)[C@@H](N)Cc1c[nH]cn1)[C@@H](C)O)[C@@H](C)O)C(=O)N[C@@H](CCCNC(=N)N)C(=O)N[C@@H](CCCNC(=N)N)C(=O)N[C@@H](C)C(=O)N[C@@H](CCC(N)=O)C(=O)N[C@@H](CC(=O)O)C(=O)N[C@@H](Cc1ccccc1)C(=O)N[C@H](C(=O)N[C@@H](CCC(N)=O)C(=O)N[C@@H](Cc1c[nH]c2ccccc12)C(=O)N[C@@H](CC(C)C)C(=O)N[C@@H](CC(C)C)C(=O)N[C@@H](CC(N)=O)C(=O)N[C@H](C(=O)NCC(=O)NCC(=O)N1CCC[C@H]1C(=O)N[C@@H](CO)C(=O)N[C@@H](CO)C(=O)NCC(=O)N[C@@H](C)C(=O)N1CCC[C@H]1C(=O)N1CCC[C@H]1C(=O)N1CCC[C@H]1C(=O)N[C@@H](CO)C(N)=O)[C@@H](C)O)C(C)C)C(=O)O	item: IL-1β, IL-6, TNF-α, IL-4, IL-5, IL-13 mRNA	Schistosoma japonicum-infected mice, liver and serum	dose not given		cytokine levels	decreased
Cc1ccc(/C=C/C(=O)O)cc1-c1cc2c(cc1C)C(C)(C)CCC2(C)C	RNA sequencing, item: Rbp1	rat, brain	dose not given, 24 h	baseline: vehicle	log2 fold change	-0.19
CC[C@H](C)[C@H](NC(=O)[C@H](CCCNC(=N)N)NC(=O)[C@H](CCC(N)=O)NC(=O)[C@H](CC(=O)O)NC(=O)[C@H](CC(C)C)NC(=O)[C@H](CC(C)C)NC(=O)[C@H](CC(N)=O)NC(=O)[C@H](Cc1ccccc1)NC(=O)[C@H](CC(=O)O)NC(=O)[C@@H](NC(=O)[C@@H](NC(=O)[C@H](CC(N)=O)NC(=O)CNC(=O)[C@H](CO)NC(C)=O)C(C)C)[C@@H](C)CC)C(=O)N[C@H](C(=O)N[C@@H](Cc1c[nH]c2ccccc12)C(=O)N[C@@H](CCC(N)=O)C(=O)N[C@@H](CC(N)=O)C(=O)N[C@@H](Cc1c[nH]c2ccccc12)C(=O)N[C@@H](Cc1ccc(O)cc1)C(=O)N[C@@H](C)C(N)=O)[C@@H](C)CC	item: HA-02 tetramer	antigen-experienced tetramer+ CD4 T cells, healthy adults, HLA-DRB1*0101	dose not given		α4β7+ CCR9− cells	85.7%
CC(C)C[C@H](NC(=O)[C@H](C)NC(=O)CNC(=O)[C@H](CO)NC(=O)CNC(=O)[C@H](CCCNC(=N)N)NC(=O)[C@H](CCCNC(=N)N)NC(=O)[C@H](CCCNC(=N)N)NC(=O)[C@H](CCC(N)=O)NC(=O)[C@H](CCCNC(=N)N)NC(=O)[C@H](CCCNC(=N)N)NC(=O)[C@H](CCCCN)NC(=O)[C@H](CCCCN)NC(=O)[C@H](CCCNC(=N)N)NC(=O)CNC(=O)[C@@H](N)Cc1ccc(O)cc1)C(=O)N[C@@H](CO)C(=O)N[C@H](C(=O)N[C@@H](CCC(=O)O)C(=O)N[C@@H](CCCNC(=N)N)C(=O)O)[C@@H](C)O	inhibitor	isolated rat heart	concentration not given, ischemia/reperfusion		troponin I phosphorylation	no inhibition
CCCCCCCCC=CCCCCCCCC(=O)OCC1OC(n2ccc(N)nc2=O)C(F)(F)C1O (stereo not drawn)	xenograft	mice, NCI-H146 xenograft	ip, MTD		antitumour activity	inactive
CC[C@@]1(O)C(=O)OCc2c1cc1n(c2=O)Cc2cc3cc(OC(=O)CCCC(=O)NCC(=O)N[C@@H](Cc4ccccc4)C(=O)N[C@@H](Cc4ccccc4)C(=O)N[C@@H](Cc4ccc(OP(=O)(O)O)cc4)C(=O)NCCSSCCNC(=O)CCC(=O)N[C@@H](CCC(=O)O)C(=O)N[C@@H](CCCNC(=N)N)C(=O)NCC(=O)N[C@@H](CC(=O)O)C(=O)O)ccc3nc2-1		nude mice, HepG2 xenograft	dose not given, day 21, initial 300 mm^3	baseline: saline over compound	tumour volume ratio	~9 fold
CC(C)C[C@@H]1NC(=O)[C@@H](Cc2c[nH]c3ccccc23)NC(=O)[C@H](CCCNC(=N)N)NC(=O)[C@@H](CCC(=O)O)NC(=O)[C@H](CCC(N)=O)NC(=O)[C@@H](CCC(=O)O)NC(=O)[C@H](CCCNC(=N)N)NC(=O)[C@@H](Cc2c[nH]c3ccccc23)NC1=O	flow cytometry	LDLr-/- mouse, western diet, small intestine lamina propria	dose not given	baseline: vehicle	Helios+ to RORγt+ Treg ratio	increased
CSCC[C@H](NC(=O)CNC(=O)[C@H](CC(=O)O)NC(=O)[C@@H](NC(=O)[C@@H](NC(=O)[C@@H](NC(=O)CNC(=O)[C@H](CCC(N)=O)NC(=O)[C@H](CCSC)NC(=O)[C@H](CC(=O)O)NC(=O)[C@H](C)NC(=O)[C@H](C)NC(=O)[C@@H](NC(=O)[C@H](CO)NC(=O)[C@@H](N)CC(C)C)[C@@H](C)O)C(C)C)C(C)C)[C@@H](C)O)C(=O)N[C@@H](C)C(=O)N[C@@H](CO)C(=O)NCC(=O)N[C@@H](CC(C)C)C(=O)N[C@@H](CC(=O)O)C(=O)N[C@@H](CCCCN)C(=O)N[C@@H](CC(=O)O)C(=O)N[C@@H](Cc1ccc(O)cc1)C(=O)N[C@@H](CC(C)C)C(=O)N[C@@H](CCCCN)C(=O)N1CCC[C@H]1C(=O)N[C@@H](CC(=O)O)C(=O)N[C@@H](CC(=O)O)C(=O)O		patients with partial response, p53-positive solid tumours	dose not given, deceased patients		survival	44 to 71 weeks
CN(C)CCN(Cc1ccccc1)C(=O)c1cc(-c2ccc(F)cc2)n2nc(C(C)(C)C)cc2n1	Barnes maze probe trial	Tg6799 mouse	dose not given	baseline: untreated	distance travelled	no effect
CC(C)C[C@@H]1NC(=O)[C@H](C(C)C)NC(=O)[C@H](CO)NC(=O)CNC(=O)CNC(=O)[C@H](CCCNC(=N)N)NC(=O)[C@@H]2CCCN2C(=O)[C@@H](NC(=O)CC[C@H](NC(=O)c2ccc(N(C)Cc3cnc4nc(N)nc(N)c4n3)cc2)C(=O)O)C(C)(C)SSC[C@@H](C(=O)O)NC(=O)CNC(=O)[C@H]([C@@H](C)O)NC(=O)[C@H](C(C)C)NC1=O		rat adjuvant arthritis	iv, 0.05 mg/kg once daily day 0-14, day 14		paw weight	3.38 ± 0.11 g
COc1ccc([N+](=O)[O-])cc1NC(=O)CCC(=O)[O][Zn][O]C(=O)CCC(=O)Nc1cc([N+](=O)[O-])ccc1OC.c1ccncc1	DPPH scavenging, absorbance		125 µg/mL		inhibition	66.3%
CCCCCCCC/C=C\CCCCCCCCOP(O)(O)=S.N		C57BL/6 mouse	subcutaneous, 1, 3 or 10 mg/kg single, day 30, dosed 30 min before irradiation, with: 6.3 Gy total-body irradiation, LD90/30	baseline: vehicle	survival increase	> 50%
O=C(O)/C=C/c1cc(O)cc(O)c1	DPPH radical scavenging		62.5 µg/mL		inhibition	49.7 ± 2.31%
COc1ccc2c(c1)/C(=N\Nc1nnc3n1N=C(c1ccccc1)CS3)C(=O)N2	angiogenesis	hen egg chorioallantoic membrane	40 µM	baseline: DMSO vehicle	number of blood vessels	decreased
CC(C)C[C@H](NC=O)C(=O)N[C@@H](C)C(=O)N[C@@H](C)C(=O)N[C@@H](CC(=O)O)C(=O)N[C@@H](CC(C)C)C(=O)N[C@@H](CC(C)C)C(=O)N[C@@H](C)C(=O)N[C@@H](C)C(=O)N[C@@H](CC(C)C)C(=O)NCC(=O)N[C@@H](CC(=O)O)C(=O)N[C@@H](CC(C)C)C(=O)N[C@@H](C)C(=O)N[C@@H](CCCCN)C(=O)N[C@@H](Cc1c[nH]c2ccccc12)C(=O)N[C@@H](CC(C)C)C(=O)N[C@@H](CC(C)C)C(=O)N[C@@H](CC(=O)O)C(=O)N[C@@H](C)C(=O)N[C@@H](CC(C)C)C(=O)N[C@@H](C)C(=O)N[C@@H](CCCCN)C(=O)N[C@@H](C)C(=O)N[C@@H](C)C(=O)N[C@@H](CCCCN)C(=O)N[C@@H](CCCCN)C(=O)O (racemic)	carboxyfluorescein release, stopped-flow fluorescence	POPC vesicles 50 µM	up to 1 µM, pH 7.5, peptide/lipid 1:50		time constant	14.8 s
COc1ccc2nc3ccc(OC)cc3c(SCCCN)c2c1		5TGM1-GFP, J:NU mouse myeloma allograft	50 mg/kg, from day 14		mean survival	28.5 days
N=C(N)NCCC[C@H](NC(=O)[C@@H]1CCCN1C(=O)[C@@H]1CSSC[C@H](N)C(=O)N[C@@H](Cc2ccc(O)cc2)C(=O)N[C@@H](Cc2ccccc2)C(=O)N[C@@H](CCC(N)=O)C(=O)N[C@@H](CC(N)=O)C(=O)N1)C(=O)NCC(N)=O		male Sprague-Dawley rat, conscious	intra-arterial, 5 ng/kg	baseline: pre-injection baseline	peak mean arterial pressure change	~15 mmHg
CC[C@H](C)[C@H](NC(=O)[C@@H](NC(=O)[C@H](CC(=O)O)NC(C)=O)[C@@H](C)O)C(=O)N[C@@H](CCCNC(=N)N)C(=O)N[C@@H](CC(C)C)C(=O)N[C@@H](CC(C)C)C(=O)N[C@@H](Cc1ccccc1)C(=O)N[C@@H](CCC(N)=O)C(=O)N[C@@H](CC(C)C)C(=O)N[C@@H](CCSC)C(=O)N[C@@H](CCCNC(=N)N)C(=O)N1CCC[C@H]1C(=O)N1CCC[C@H]1C(=O)N[C@@H](CC(N)=O)C(=O)N[C@@H](CCSC)C(=O)N[C@H](C(=O)N1CCC[C@H]1C(=O)N[C@@H](C)C(=O)N[C@H](C(=O)N[C@@H](CC(N)=O)C(=O)N[C@@H](C)C(N)=O)C(C)C)[C@@H](C)O	item: HA-52 tetramer	antigen-experienced tetramer+ CD4 T cells, healthy adults, HLA-DRB1*0101	dose not given		α4β7+ CCR9− cells	31.2%

Excerpt of the above:
SMILES	assay	system	conditions	how to read	endpoint	value
COc1ccc([N+](=O)[O-])cc1NC(=O)CCC(=O)[O][Zn][O]C(=O)CCC(=O)Nc1cc([N+](=O)[O-])ccc1OC.c1ccncc1	DPPH scavenging, absorbance		125 µg/mL		inhibition	66.3%
CCCCCCCC/C=C\CCCCCCCCOP(O)(O)=S.N		C57BL/6 mouse	subcutaneous, 1, 3 or 10 mg/kg single, day 30, dosed 30 min before irradiation, with: 6.3 Gy total-body irradiation, LD90/30	baseline: vehicle	survival increase	> 50%
